Published values collected from several papers.
Numbers after ± are the reported error.

| Structure (SMILES) | target or system | assay | test system | setting | how to read | endpoint | value |
| --- | --- | --- | --- | --- | --- | --- | --- |
| C[C@@H]1CN(CC(=O)N2CC(C)(C)c3ncc(Cc4ccc(F)cc4)cc32)[C@@H](CN2CCOC[C@H]2C)CN1 |  |  | cynomolgus monkey, male | oral, 5 mg/kg |  | AUC(0-last) | 73 ± 9.7 ng·h/mL |
| O=C(O)c1cccc(C(=O)O)c1 |  |  | betaine/glycerol DES-water | DES mass fraction 0.10 |  | apparent dissolution enthalpy | 34.6 kJ/mol |
| CCCC[C@H](NC(=O)[C@@H](NC(=O)[C@H](CCC(=O)O)NC(=O)CNC(=O)[C@]1(C)CCCC=CCCC[C@](C)(NC(=O)[C@H](Cc2ccccc2)NC(=O)[C@H](CCCCN)NC(=O)[C@H](CCCCN)NC(=O)[C@H](C)NC(=O)[C@H](CO)NC(=O)[C@H](Cc2c[nH]cn2)NC(=O)[C@H](CC(C)C)NC(=O)[C@H](Cc2ccccc2)NC(=O)[C@H](CCCCN)NC(=O)CNC(=O)[C@@H](NC(=O)CN)[C@@H](C)CC)C(=O)N[C@@H](CCCCN)C(=O)N[C@@H](C)C(=O)N[C@@H](Cc2ccccc2)C(=O)N1)[C@@H](C)CC)C(=O)N[C@@H](CC(N)=O)C(=O)N[C@@H](CO)C(N)=O |  | HPLC C18 column |  |  |  | retention time | 15.3 min |
| Cc1ccc(Sc2ccccc2N2CCNCC2)c(C)c1 |  | item: Somnolence | healthy adult women | oral, 10 mg daily, 12 days |  | participants with TEAE | 16.7% |
| O=C(Nc1nc2cccc(-c3ccc(CN4CCS(=O)(=O)CC4)cc3)n2n1)C1CC1 |  | item: gastrointestinal pain | human rheumatoid arthritis patients | oral, 300 mg once daily, 4 weeks, regardless of relatedness |  | treatment-emergent adverse events | 5% |
| CCOc1c([C@H](C)n2nc(C)c3c(N)ncnc32)cc(Cl)c(F)c1[C@@H]1CNC(=O)C1 |  | ECG | previously treated B-cell malignancy patients | oral, 10 mg once daily, baseline below thresholds |  | observations with HR ≤100 bpm | 100% |
| CC(O)CN(CCN(CC(C)O)CC(C)O)CC(C)O (stereo not shown) | THP-1 | pyroptotic LDH release |  | 2 µM, 40 min, together with: LPS then nigericin |  | inhibition | -18.2% |
| Cc1nn(CC(F)(F)F)cc1Nc1ncc(C2CC2)c(NCCCNC(=O)C2CCC2)n1 |  | PAMPA | PBS | 5 h, pH 7.4 |  | effective permeability | 5.08e-06 cm/s |
| CC(C)[C@@H](CN1CC[C@@](C)(c2cccc(O)c2)[C@@H](C)C1)NC(=O)[C@H]1Cc2ccc(O)cc2CN1 |  |  | Sprague-Dawley rat, brain | intraperitoneal, 10 mg/kg |  | AUCtotal | 27800 ng·h/g |
| C[C@@H](Nc1cc(F)cc(F)c1)c1cc(C(=O)N(C)C)cc2c(=O)cc(N3CCOCC3)oc12 |  |  | patients with advanced solid tumours | oral, 60 mg twice daily, monotherapy dose-expansion, 5:2 schedule |  | share of patients with dose reduction | 0% |
| COc1cc(C(=O)N2CCC3(CC2)CC(=O)c2c(cnn2C(C)C)C3)cc(-c2ccc(C(=O)O)cc2)n1 |  | item: direct LDL cholesterol | human, fasting serum | 30 mg every 12 h, day 13, adjusted geometric mean | baseline: baseline | percentage change from baseline | -6% |
| CC(C)(C(=O)N1CCOc2c(C#N)cncc2C1)C(F)F |  | item: Conjunctivitis | human | oral, 20 mg twice daily, 14 days, multiple ascending dose |  | subjects with adverse event | 0% |
| OCC(O)CN1CCN(c2ccccc2)CC1 (stereo not shown) | THP-1 | pyroptotic LDH release |  | 2 µM, 40 min, together with: LPS then nigericin |  | inhibition | 43.2% |
| Cl.[2H]C([2H])([2H])CC(=O)c1cnc(NC(=O)C2CC2)cc1Nc1cccc(-c2ncn(C([2H])([2H])[2H])n2)c1OC |  | geometric mean | human | 20 mg once daily, day 7, fasted, liquid, multiple dose |  | CL/F | 15.3 L/h |
| O=C(O)CCC(=O)O.[2H]C([2H])([2H])Oc1cc(C)c2[nH]ccc2c1CN1CC[C@@H](C2CC2)C[C@H]1c1ccc(C(=O)O)cc1 |  | multiple ascending dose | healthy Chinese subjects | 50 mg twice daily |  | subjects with proteinuria TEAE | 0% |
| COc1ncc(-c2nc3c(n2C(C)C)[C@H](c2ccc(Cl)cc2)N(c2cc(Cl)cn(C)c2=O)C3=O)c(OC)n1 |  | LC-MS/MS, noncompartmental | human, plasma | oral, 200 mg, cycle 1 day 1, high-dose, geometric mean |  | AUC(0-last) | 19300 ng·h/mL |
